# Experimental data of several laboratories.
# Compare with care: the assays were run in different laboratories. Several values in a cell are separate wells, animals, samples, runs or records. Numbers after ± are the reported error.
# rep main protease: Replicase polyprotein 1ab, main protease (rep, Severe acute respiratory syndrome coronavirus 2, UniProt P0DTD1)
# rep papain-like protease: Replicase polyprotein 1ab, papain-like protease (rep, Severe acute respiratory syndrome coronavirus 2, UniProt P0DTD1)
SMILES,tested on,test,test system,setting,endpoint,result
CN(C)C(=O)CCCNC(=O)C[C@H](Cc1ccc(F)cc1)NC(=O)[C@@H](Cc1ccc(Cl)cc1Cl)NC(=O)[C@H](N)Cc1ccccc1C#N,rep main protease,"enzyme activity, inhibitor",,,IC50,80 nM
Cc1ccc(OCCN(C)C)cc1C(=O)N[C@H](C)c1cc(-c2cnn(CC(N)=O)c2)cc(-c2cccs2)c1,rep papain-like protease,"protease activity, inhibitor",FlipGFP reporter cells,,EC50,> 10 µM
Oc1nc(/C=C/c2ccc(Cl)cc2Cl)cc(C(F)(F)F)n1,"Replicase polyprotein 1ab, nsp16 with nsp10 (rep, Severe acute respiratory syndrome coronavirus 2, UniProt P0DTD1)",irreversible inhibitor,,,Ki,26000 nM
N#CCCNC(=O)C[C@H](Cc1ccc(F)cc1)NC(=O)[C@@H](Cc1ccc(Cl)cc1Cl)NC(=O)[C@H](N)Cc1ccccc1C#N,rep main protease,"enzyme activity, inhibitor",,,IC50,100 nM
Clc1nc2ccccc2cc1/C=N/c1cc(Br)ccn1,rep main protease,inhibitor,,,Ki,< 2000 nM and 1820 nM
N#Cc1ccccc1C[C@@H](N)C(=O)N[C@H](Cc1ccc(Cl)cc1Cl)C(=O)N[C@H](CC(=O)NCCCS(N)(=O)=O)Cc1ccc(F)cc1,rep main protease,"enzyme activity, inhibitor",,,IC50,200 nM
CC(C)[C@H](NC(=O)c1n[nH]c2c1CCC2)c1nc2ccccc2n1C,"Replicase polyprotein 1ab, nsp3 Mac1 domain (rep, Severe acute respiratory syndrome coronavirus 2, UniProt P0DTD1)",,,,Kd,3.16 ± 2.42 µM
CC[C@H](C)[C@H](NC(=O)[C@H](C)NC(=O)[C@H](CCC(=O)O)NC(=O)[C@H](CCC(=O)O)NC(=O)[C@H](CC(C)C)NC(=O)[C@H](CCCCN)NC(=O)[C@H](CCCCN)NC(=O)[C@H](CCSC)NC(=O)[C@H](CCC(=O)O)NC(=O)[C@H](Cc1ccc(O)cc1)NC(=O)[C@H](CCC(=O)O)NC(=O)[C@H](CC(C)C)NC(=O)[C@H](CC(=O)O)NC(=O)[C@H](CC(C)C)NC(=O)[C@H](Cc1ccccc1)NC(=O)[C@H](Cc1ccc(O)cc1)NC(=O)[C@@H](NC(=O)[C@H](CC(N)=O)NC(=O)[C@@H](NC(=O)[C@H](CCC(N)=O)NC(=O)[C@H](CC(=O)O)NC(=O)[C@H](CC(C)C)NC(=O)[C@@H](N)CO)[C@@H](C)CC)C(C)C)C(=O)N[C@@H](CCCCN)C(=O)N[C@@H](CCCCN)C(=O)N[C@@H](CC(C)C)C(=O)N[C@@H](CCC(=O)O)C(=O)N[C@@H](CCC(=O)O)C(=O)N[C@H](C(=O)N[C@@H](Cc1ccc(O)cc1)C(=O)N[C@H](C(=O)N[C@@H](CC(=O)O)C(=O)N[C@@H](CC(C)C)C(=O)N[C@@H](CCCCN)C(=O)N[C@@H](CCC(=O)O)C(=O)N[C@@H](CC(C)C)C(=O)O)[C@@H](C)CC)[C@@H](C)O,SARS-CoV-2 Beta pseudovirus,"pseudovirus infection, inhibitor, luciferase",Caco-2,"24 h, dual mutations",IC50,599 nM
COCCn1cc(-c2cc(-c3cnn(CC(N)=O)c3)cc([C@@H](C)NC(=O)c3cc(OCCN(C)C)ccc3C)c2)cn1,rep papain-like protease,"protease activity, inhibitor",FlipGFP reporter cells,,EC50,> 10 µM
CC[C@H](C)[C@H](NC(=O)[C@H](C)NC(=O)[C@H](CCC(=O)O)NC(=O)[C@H](CCC(=O)O)NC(=O)[C@H](CC(C)C)NC(=O)[C@H](CCCCN)NC(=O)[C@H](CCCCN)NC(=O)[C@H](CCSC)NC(=O)[C@H](CCC(=O)O)NC(=O)[C@H](Cc1ccc(O)cc1)NC(=O)[C@H](CCC(=O)O)NC(=O)[C@H](CC(C)C)NC(=O)[C@H](CC(=O)O)NC(=O)[C@H](CC(C)C)NC(=O)[C@H](Cc1ccccc1)NC(=O)[C@@H](NC(=O)[C@@H](NC(=O)[C@H](CC(N)=O)NC(=O)[C@@H](NC(=O)[C@H](CCC(N)=O)NC(=O)[C@H](CC(=O)O)NC(=O)[C@H](CC(C)C)NC(=O)[C@@H](N)CO)[C@@H](C)CC)C(C)C)[C@@H](C)O)C(=O)N[C@@H](CCCCN)C(=O)N[C@@H](CCCCN)C(=O)N[C@@H](CC(C)C)C(=O)N[C@@H](CCC(=O)O)C(=O)N[C@@H](CCC(=O)O)C(=O)N[C@@H](CO)C(=O)N[C@@H](Cc1ccc(O)cc1)C(=O)N[C@H](C(=O)N[C@@H](CC(=O)O)C(=O)N[C@@H](CC(C)C)C(=O)N[C@@H](CCCCN)C(=O)N[C@@H](CCC(=O)O)C(=O)N[C@@H](CC(C)C)C(=O)O)[C@@H](C)CC,SARS-CoV-2 Alpha pseudovirus,"pseudovirus infection, inhibitor, luciferase",Caco-2,24 h,IC50,1120 nM
Cc1ccc(OCCN(C)C)cc1C(=O)N[C@H](C)c1cc(-c2cnn(C)c2)cc(-c2cnn(CC(N)=O)c2)c1,rep papain-like protease,"protease activity, inhibitor",FlipGFP reporter cells,,EC50,> 10 µM

# Excerpt of the above:
SMILES,tested on,test,test system,setting,endpoint,result
Clc1nc2ccccc2cc1/C=N/c1cc(Br)ccn1,rep main protease,inhibitor,,,Ki,< 2000 nM and 1820 nM
